Measurements of several laboratories.
Every numbered part comes from another study and shows a few of its results, in no order.

Series 1
Target: Histone acetyltransferase KAT6A, winged helix 1, GST fusion (KAT6A, Homo sapiens, UniProt Q92794, residues 1-85)
Technique: protein binding microarray
Molecule type: double-stranded DNA, one strand shown
Sample: in vitro
Tested at: not given
Notes: 8-mer, flanks averaged, mean of 2 arrays, mostly near background
Reference: not given
Reading: higher = stronger binding
Residues (chain): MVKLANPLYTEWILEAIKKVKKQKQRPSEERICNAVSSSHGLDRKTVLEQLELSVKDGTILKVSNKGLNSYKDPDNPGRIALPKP
Oligonucleotide | E-score
AGGAGCCG | 0.127
GAACTGAC | -0.045
ATGGGCAC | -0.0925
CGTACGCA | 0.342

Series 2
Target: Sal-like protein 4, full length isoform A (SALL4, Homo sapiens, UniProt Q9UJQ4, residues 1-1053)
UniProt Q9UJQ4, sequence (whole entry, looked up): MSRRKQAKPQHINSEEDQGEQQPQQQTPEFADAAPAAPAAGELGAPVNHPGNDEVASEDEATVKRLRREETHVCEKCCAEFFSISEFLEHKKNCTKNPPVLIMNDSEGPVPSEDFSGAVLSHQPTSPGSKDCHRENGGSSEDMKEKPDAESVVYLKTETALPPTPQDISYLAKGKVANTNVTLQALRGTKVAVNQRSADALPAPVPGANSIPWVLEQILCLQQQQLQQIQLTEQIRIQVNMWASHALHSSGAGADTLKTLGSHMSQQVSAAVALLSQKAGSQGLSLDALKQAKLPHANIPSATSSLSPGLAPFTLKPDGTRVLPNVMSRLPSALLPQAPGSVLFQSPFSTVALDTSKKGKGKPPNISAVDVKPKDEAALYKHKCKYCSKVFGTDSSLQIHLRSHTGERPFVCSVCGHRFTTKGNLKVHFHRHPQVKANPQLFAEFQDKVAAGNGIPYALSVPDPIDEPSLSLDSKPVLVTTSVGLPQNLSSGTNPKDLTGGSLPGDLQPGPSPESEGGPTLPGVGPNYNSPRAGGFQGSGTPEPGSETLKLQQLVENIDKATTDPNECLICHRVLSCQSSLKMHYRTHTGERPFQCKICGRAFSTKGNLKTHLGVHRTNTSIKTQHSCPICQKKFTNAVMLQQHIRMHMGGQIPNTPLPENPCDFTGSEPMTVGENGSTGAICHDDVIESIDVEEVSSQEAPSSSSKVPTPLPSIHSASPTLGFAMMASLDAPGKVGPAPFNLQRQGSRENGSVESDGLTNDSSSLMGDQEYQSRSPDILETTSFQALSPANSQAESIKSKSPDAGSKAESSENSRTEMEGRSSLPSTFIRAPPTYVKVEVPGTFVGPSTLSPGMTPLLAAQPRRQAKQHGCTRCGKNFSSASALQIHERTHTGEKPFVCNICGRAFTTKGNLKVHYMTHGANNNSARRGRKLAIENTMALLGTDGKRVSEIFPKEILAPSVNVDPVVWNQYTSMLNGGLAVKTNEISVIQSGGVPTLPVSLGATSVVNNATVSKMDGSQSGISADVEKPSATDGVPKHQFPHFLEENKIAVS
Technique: universal PBM
Molecule type: double-stranded DNA, one strand shown
Sample: in vitro
Tested at: 600 nM
Notes: 8-mer, flanks averaged, mean of replicates
Reading: higher = stronger binding
Oligonucleotide | E-score
AGAGCACT | -0.0174
AAGGCAGC | -0.23
CATCATCA | 0.217
CATGGGGA | -0.174

Series 3
Target: Ras GTPase-activating protein-binding protein 1, full length (G3BP1, Homo sapiens, UniProt Q13283)
UniProt Q13283, sequence (whole entry, looked up): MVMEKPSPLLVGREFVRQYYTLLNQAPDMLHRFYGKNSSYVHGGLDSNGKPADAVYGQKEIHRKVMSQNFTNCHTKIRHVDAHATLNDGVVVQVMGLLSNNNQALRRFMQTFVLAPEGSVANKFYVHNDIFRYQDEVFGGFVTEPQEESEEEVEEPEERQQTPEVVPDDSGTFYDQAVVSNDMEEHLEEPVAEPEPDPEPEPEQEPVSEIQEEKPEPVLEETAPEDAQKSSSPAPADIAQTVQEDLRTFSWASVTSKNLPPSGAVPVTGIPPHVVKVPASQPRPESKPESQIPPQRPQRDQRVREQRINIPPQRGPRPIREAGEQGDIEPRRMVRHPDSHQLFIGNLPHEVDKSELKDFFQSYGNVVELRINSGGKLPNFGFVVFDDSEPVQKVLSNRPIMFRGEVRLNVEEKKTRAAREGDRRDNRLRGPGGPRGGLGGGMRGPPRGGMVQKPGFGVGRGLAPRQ
Technique: RNA Bind-n-Seq
Molecule type: RNA
Sample: in vitro
Tested at: 200 nM
Notes: whole 134-nt RNA, ends assumed
Together with: 150 mM KCl
Reference: input library
Reading: higher = stronger binding
All sequences stand within: GGGAGUUCUACAGUCCGACGAUC … UGGAAUUCUCGGGUGUCAAGG
Oligonucleotide | log2 enrichment
UCAAGUCCUGUGCUACACAUCGUAUGUACCGAAUCGGGGUUGGUUGGGGUUGGGGAAAGUAUUAUGUUACGCCGUUCGGAUCUGCACUUC | 0.412
GUCCUGUGCUACACAUCGUAUGUACCGAAUCGGGAAAAAAAGGGUUUUUUUGGGUGGGAAAGUAUUAUGUUACGCCGUUCGGAUCUGCAC | -0.0143
CACAUACAACACGCACCCACACAGACACAGAGGGAAGGGGUUGGGAUGGGGACAGGGUGCACAGCAGGGCGGGGUAGGACCCCAGCCCCU | 1.84
GCAGGAAGUAAAAACAAAUGGAAAUGCUUCGGAUAGUGGCAGGGGUGGGGGUUGCUAAGGAAAGGGUGGGAUGGGAGUGGGUAAAGACUU | 1.66
AAGUCCUGUGCUACACAUCGUAUGUACCGAAUCGGGGAAAGGGGUUUGGGGUGGGGAAAGUAUUAUGUUACGCCGUUCGGAUCUGCACUU | 0.983

Single results of other studies
Molecule | target | assay | system | setting | scale | endpoint | result
PhoQ, residues 284 288 289 292 302 303 AGHLVA | PhoP, residues 12 14 15 18 19 SGWQI (Escherichia coli, UniProt P23836) | Sort-seq, measured: YFP reporter | E. coli | PhoQ-PhoP variant library, together with: 10 µM Mg2+ | reference: high Mg2+ state, higher = stronger signaling | fold induction | 5.35

Some of these lines once more (series 1):
Oligonucleotide | E-score
AGGAGCCG | 0.127
